Results of several laboratories.
Each line is one published result; not all experiments were run side by side. “And” joins repeats or separate records; there may be more than shown. Numbers after ± are the reported error.

CNCc1ccc2c(c1)C[C@H](CNC(=N)N)[C@H]2NC(=O)C(=O)Nc1ccc(Cl)c(F)c1  IC50 (Human immunodeficiency virus 1; viral infection, Env pseudovirus; TZM-bl, 620345.c01 CRF01_AE): > 100 µM
Cc1ncsc1-c1ccc(C(C)NC(=O)C2CC(O)CN2C(=O)C(NC(=O)CCCCCCCCCCN2CCCC(Nc3ncc(Cl)c(Nc4ccccc4S(=O)(=O)C(C)C)n3)C2)C(C)(C)C)cc1 (stereo not drawn)  log2 fold change (22Rv1; RNA-seq, refers to: MRGBP mRNA; concentration not given; relative to: DMSO): -1.14
Cc1[nH]c2ccccc2c1CCNC(=O)c1ccccc1F  IC50 (Listeria; Listeria comet tail formation; SK-OV-3; infected cells): 7 µM
COC1C=COC2(C)Oc3c(C)c(O)c4c(c3C2=O)C2=NC3(CCN(CC(C)C)CC3)NC2=C(NC(=O)C(C)=CC=CC(C)C(O)C(C)C(O)C(C)C(OC(=O)Nc2cnccn2)C1C)C4=O (stereo not drawn)  IC50 (Mycobacteroides abscessus; bacterial growth; subsp. abscessus ATCC 19977): 0.02 µM
CCN(CC)CC#CCNc1ccnc2cc(Cl)ccc12  IC50 (Plasmodium falciparum; parasite growth, SYBR Green I; 3D7): 0.0479 µM and 0.0421 µM
Oc1cccc2c1[nH]c1c(C3=CC4(O)CCC=CCCCCN5CCC3C3(CC6C=CCCCCN6C43)C5)nccc12 (single isomer, unassigned; (+))  IC50 (Mycobacterium intracellulare; microbial growth, resazurin; ATCC23068): 0.13 µg/mL
O=C1Nc2ccccc2C1(c1c[nH]c2ccccc12)c1c[nH]c2ccccc12  IC50 (Bacteroides fragilis; microbial growth, absorbance): 3.6 µM
COc1cc(C2CC(=O)Nc3nc(N)[nH]c(=O)c32)ccc1O (stereo not drawn)  IC50 (Leishmania donovani; MTT; AG83 wild type promastigotes; 48 h): 57.1 ± 0.8 µM
COC1CN([C@H]2CC[C@H]([C@@]3(C)Oc4c(Cl)cc(C(=O)NCc5c(SC)cc(C)[nH]c5=O)c(C)c4O3)CC2)C1  log2 fold change (RNA-seq, refers to: MAST4; human, whole blood; dose not given, 24 h; relative to: pretreatment baseline): 2.45
c1ccc2c(Cc3c(-c4c[nH]c5ccccc45)[nH]c4ccccc34)c[nH]c2c1  IC50 (Bacteroides fragilis; microbial growth, absorbance): 3.1 µM
COC1C=COC2(C)Oc3c(C)c(O)c4c(c3C2=O)C2=NC3(CCN(CC(C)C)CC3)NC2=C(NC(=O)C(C)=CC=CC(C)C(O)C(C)C(O)C(C)C(OC(=O)Nc2cccnn2)C1C)C4=O (stereo not drawn)  IC50 (Mycobacteroides abscessus; intracellular growth, Hill fit; THP-1 derived macrophages, ATCC 19977): 0.037 µM
CNCc1ccc2c(c1)N(C(=O)OCc1c(F)c(F)c(F)c(F)c1F)[C@H](CNC(=N)N)[C@H]2NC(=O)C(=O)Nc1ccc(Cl)c(F)c1  IC50 (Human immunodeficiency virus 1; viral infection, Env pseudovirus; TZM-bl, 620345.c01 CRF01_AE): 21.4 µM

Repeated from above:
COC1C=COC2(C)Oc3c(C)c(O)c4c(c3C2=O)C2=NC3(CCN(CC(C)C)CC3)NC2=C(NC(=O)C(C)=CC=CC(C)C(O)C(C)C(O)C(C)C(OC(=O)Nc2cccnn2)C1C)C4=O (stereo not drawn)  IC50 (Mycobacteroides abscessus; intracellular growth, Hill fit; THP-1 derived macrophages, ATCC 19977): 0.037 µM
c1ccc2c(Cc3c(-c4c[nH]c5ccccc45)[nH]c4ccccc34)c[nH]c2c1  IC50 (Bacteroides fragilis; microbial growth, absorbance): 3.1 µM
